{"data": "Experimental data gathered from unrelated publications", "T1": "DNA aptamer; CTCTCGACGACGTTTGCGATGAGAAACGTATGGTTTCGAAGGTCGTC", "T2": "DNA aptamer; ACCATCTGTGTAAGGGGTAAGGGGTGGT", "T3": "DNA aptamer; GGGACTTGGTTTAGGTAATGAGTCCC", "T4": "DNA aptamer; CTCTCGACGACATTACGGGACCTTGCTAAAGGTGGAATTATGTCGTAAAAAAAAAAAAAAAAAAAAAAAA", "T5": "DNA aptamer C19T; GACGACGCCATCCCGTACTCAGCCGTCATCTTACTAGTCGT", "T6": "DNA aptamer; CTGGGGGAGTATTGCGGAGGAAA", "T7": "DNA aptamer, abasic dSpacer opposite cytosine; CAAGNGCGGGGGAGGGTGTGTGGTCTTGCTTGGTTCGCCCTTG", "T8": "DNA aptamer; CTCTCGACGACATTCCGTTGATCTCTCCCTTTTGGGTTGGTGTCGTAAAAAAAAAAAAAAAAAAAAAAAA", "note": "Protocols differ between the studies behind these lines."}
{"SMILES": "Nc1ncnc2c1ncn2[C@@H]1O[C@H](COP(=O)(O)OP(=O)(O)OP(=O)(O)O)[C@@H](O)[C@H]1O", "target": "T1, DNA aptamer", "test": "probe displacement, competitor, fluorescence", "quantity": "binding", "value": "binds"}
{"SMILES": "COc1cccc2c1C(=O)c1c(O)c3c(c(O)c1C2=O)C[C@@](O)(C(=O)CO)C[C@@H]3O[C@H]1C[C@H](N)[C@H](O)[C@H](C)O1", "target": "T2, DNA aptamer", "test": "square-wave voltammetry", "system": "whole bovine blood", "conditions": "37 °C, apparent, Hill fit", "quantity": "Kd", "value": "4.5 µM"}
{"SMILES": "Nc1ncnc2c1ncn2[C@@H]1O[C@H](CO)[C@@H](O)[C@H]1O", "target": "T1, DNA aptamer", "test": "competition, fluorescence strand displacement", "conditions": "added: adenosine 100 µM", "quantity": "binding", "value": "binds"}
{"SMILES": "NC[C@H]1O[C@H](O[C@H]2[C@H](O)[C@@H](O[C@H]3O[C@H](CO)[C@@H](O)[C@H](N)[C@H]3O)[C@H](N)C[C@@H]2N)[C@H](N)C[C@@H]1O", "target": "T3, DNA aptamer", "test": "amperometry", "conditions": "qualitative, added: tobramycin 0.1 mM", "quantity": "binding", "value": "binds"}
{"SMILES": "O=c1[nH]c(=O)c2[nH]c(=O)[nH]c2[nH]1", "target": "T4, DNA aptamer", "test": "probe displacement, competitor, SPR", "conditions": "25 °C", "quantity": "binding", "value": "binds"}
{"SMILES": "CC1(C)S[C@@H]2[C@H](NC(=O)[C@H](N)c3ccccc3)C(=O)N2[C@H]1C(=O)O", "target": "T5, DNA aptamer C19T", "test": "competition, fluorescence displacement", "conditions": "apparent, added: ThT 10 µM", "quantity": "Kd", "value": "5.3 µM"}
{"SMILES": "Nc1ncnc2c1ncn2[C@@H]1O[C@H](COP(=O)(O)OP(=O)(O)OP(=O)(O)O)[C@@H](O)[C@H]1O", "target": "T6, DNA aptamer", "test": "amperometry", "conditions": "apparent, equilibrium binding curve, sensor", "quantity": "Kd", "value": "77 µM"}
{"SMILES": "CN(C)c1ccc(C(=N)c2ccc(N(C)C)cc2)cc1", "target": "T7, DNA aptamer, abasic dSpacer opposite cytosine", "test": "fluorescence enhancement", "quantity": "binding", "value": "binds"}
{"SMILES": "CN(C)[C@@H]1C(=O)C(C(N)=O)=C(O)[C@@]2(O)C(=O)C3=C(O)c4c(O)cccc4[C@@](C)(O)[C@H]3[C@H](O)[C@@H]12", "target": "T8, DNA aptamer", "test": "probe displacement, competitor, SPR", "conditions": "25 °C", "quantity": "binding", "value": "binds"}
{"SMILES": "Nc1ncnc2c1ncn2[C@@H]1O[C@H](COP(=O)(O)OP(=O)(O)OP(=O)(O)O)[C@@H](O)[C@H]1O", "target": "T6, DNA aptamer", "test": "amperometry", "conditions": "qualitative", "quantity": "binding", "value": "binds"}
{"note": "A few entries again:"}
{"SMILES": "Nc1ncnc2c1ncn2[C@@H]1O[C@H](COP(=O)(O)OP(=O)(O)OP(=O)(O)O)[C@@H](O)[C@H]1O", "target": "T6, DNA aptamer", "test": "amperometry", "conditions": "apparent, equilibrium binding curve, sensor", "quantity": "Kd", "value": "77 µM"}
